Published values collected from several papers.
Each numbered part is a random draw from the data of one study; scales do not carry over between parts. Changes are numbered by the printed parent chain.

Series 1
Target: Centromere-binding protein 1, full length, N-terminal tag (CBF1, Saccharomyces cerevisiae, UniProt P17106, residues 1-351)
Sequence of UniProt P17106 (whole entry, looked up): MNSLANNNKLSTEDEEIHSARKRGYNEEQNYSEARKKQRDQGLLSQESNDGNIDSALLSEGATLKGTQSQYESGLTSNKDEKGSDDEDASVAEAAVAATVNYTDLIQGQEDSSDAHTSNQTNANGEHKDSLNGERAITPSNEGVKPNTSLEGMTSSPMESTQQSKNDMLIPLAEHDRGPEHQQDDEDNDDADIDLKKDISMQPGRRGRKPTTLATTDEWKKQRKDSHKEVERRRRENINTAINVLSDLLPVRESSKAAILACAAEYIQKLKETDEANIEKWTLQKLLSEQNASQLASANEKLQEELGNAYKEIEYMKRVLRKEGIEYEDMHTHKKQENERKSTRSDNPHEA
Method: protein-binding microarray
Molecule type: double-stranded DNA, one strand shown
Matrix: in vitro
Concentration: 0.8 µM
Setting: whole 60-bp probe, no competitor
Direction: higher = stronger binding
Shared flanks, not repeated: … GTCTTGATTCGCTTGACGCTGCTG
| Sequence | fluorescence intensity |
| --- | --- |
| CTACCAAATGGGTGTCACCAGCGGTGGCCTTAATTC | 459 a.u. |
| GAATTTACAAAAGTCCGGGTGACATTACATACATAG | 510 a.u. |
| CTAGAAACTGTTCTATGCGTGCAAAATGATATGTTC | 567 a.u. |
| CTACTTTTTATTCATGATGTTTCGAAGAAGAGATTC | 587 a.u. |
| CCTAACTACTATATTCTGATGTTATAGCTTCGTACA | 523 a.u. |
| GAATTCTATTGAAGCAACGTGCAAGATGATCACTAG | 818 a.u. |
| GAATAAACGGCAACCTGCGTGATAAAAACTATCTAG | 547 a.u. |
| GAATATAATGTGGGTGATGAAACACGGATTATATAG | 541 a.u. |

Series 2
Target: Interferon regulatory factor 7, full length, phosphomimetic (IRF7, Homo sapiens, UniProt Q92985, residues 1-503, S101K/S471D/S472D/S475D/S476D/S477D/S483D/S484D/S487D)
Sequence of UniProt Q92985 (whole entry, unmodified, looked up): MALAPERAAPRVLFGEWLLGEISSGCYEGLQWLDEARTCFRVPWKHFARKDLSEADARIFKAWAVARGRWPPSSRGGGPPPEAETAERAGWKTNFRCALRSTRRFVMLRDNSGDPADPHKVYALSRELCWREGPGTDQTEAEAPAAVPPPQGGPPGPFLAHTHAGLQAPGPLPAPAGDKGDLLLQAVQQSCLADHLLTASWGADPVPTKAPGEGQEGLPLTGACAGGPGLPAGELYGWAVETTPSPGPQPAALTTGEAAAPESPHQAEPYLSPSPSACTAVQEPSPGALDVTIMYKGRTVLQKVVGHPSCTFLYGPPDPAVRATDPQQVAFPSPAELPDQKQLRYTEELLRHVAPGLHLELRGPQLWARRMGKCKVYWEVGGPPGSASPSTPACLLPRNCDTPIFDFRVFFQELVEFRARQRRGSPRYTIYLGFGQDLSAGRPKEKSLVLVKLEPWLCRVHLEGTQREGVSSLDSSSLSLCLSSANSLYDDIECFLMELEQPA
Method: protein-binding microarray
Molecule type: double-stranded DNA, one strand shown
Matrix: in vitro
Concentration: 250 nM
Setting: 60-bp whole probe
With: salmon DNA 0.4 mg/ml
Baseline: random background probes
Direction: higher = stronger binding
Shared flanks, not repeated: GCCTAGCAC … GTCTTGATTCGCTTGACGCTGCTG
| Sequence | log fluorescence |
| --- | --- |
| TCAACTTTGCTCTGTGCAACTGTGCTA | -0.222 z-score |
| TTAGGTTTAGACTATCGGTTAGTGCTA | -0.0989 z-score |
| TCAAAAATCTCAATGGGACTGTGCTAG | -0.535 z-score |
| GACGGTTACGGTTCCGGGACGTGCTAG | 0.94 z-score |
| TCAGGTATGCTCATGACACTGTGCTAG | -0.595 z-score |
| GACGGTCTCGGTTACGGGACGTGCTAG | 1.36 z-score |
| GTGTGCATCTATCTTAAATAGTGCTAG | -0.212 z-score |
| TCAAATCTCAGCCTCCGACTGTGCTAG | -0.228 z-score |

Series 3
Target: Ras GTPase-activating protein-binding protein 1, full length (G3BP1, Homo sapiens, UniProt Q13283)
Sequence of UniProt Q13283 (whole entry, looked up): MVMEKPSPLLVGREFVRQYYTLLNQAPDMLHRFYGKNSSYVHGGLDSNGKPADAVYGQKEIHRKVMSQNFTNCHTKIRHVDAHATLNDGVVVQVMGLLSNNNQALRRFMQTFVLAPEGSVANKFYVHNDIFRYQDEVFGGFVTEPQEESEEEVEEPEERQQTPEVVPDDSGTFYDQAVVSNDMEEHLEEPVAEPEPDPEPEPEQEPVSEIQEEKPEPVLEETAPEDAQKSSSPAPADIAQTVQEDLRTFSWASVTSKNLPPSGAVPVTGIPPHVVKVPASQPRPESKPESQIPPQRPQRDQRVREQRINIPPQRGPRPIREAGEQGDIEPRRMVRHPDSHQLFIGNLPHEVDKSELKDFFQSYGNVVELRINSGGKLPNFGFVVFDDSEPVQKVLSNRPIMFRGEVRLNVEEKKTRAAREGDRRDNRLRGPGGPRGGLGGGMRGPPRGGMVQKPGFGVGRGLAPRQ
Method: RNA Bind-n-Seq
Molecule type: RNA
Matrix: in vitro
Concentration: 200 nM
Setting: whole 134-nt RNA, ends assumed
With: 150 mM LiCl
Baseline: input library
Direction: higher = stronger binding
All molecules: 7-deaza-guanosine replaces G
Shared flanks, not repeated: GGGAGUUCUACAGUCCGACGAUC … UGGAAUUCUCGGGUGUCAAGG
| Sequence | log2 enrichment |
| --- | --- |
| CCUCAAGUCCUGUGCUACACAUCGUAUGUACCGAAUCGGGCCGGCCGGGCCGGAAAGUAUUAUGUUACGCCGUUCGGAUCUGCACUUCCA | 0.996 |
| UCAAGUCCUGUGCUACACAUCGUAUGUACCGAAUCGGGCCCGGGGCCCGGCCCGGAAAGUAUUAUGUUACGCCGUUCGGAUCUGCACUUC | -1.86 |
| CACAGACAACACGCACCCACACAGACACAGAGGGAAGGGGUUGGGAUGGGGACAGGGUGCACAGCAGGCCGGGGUAGGACCCCAGCCCCU | -0.158 |
| UGGCCCUGGUGGCAUGCGGGGAGGAAGAGGAGGCCUCAUGGAUCGUGGUGGUCCCGGUGGAAUGUUCAGAGGUGGCCGUGGUGGAGACAG | 0.168 |
| GCAGGAAGUAAAAACAAAUGGAAAUGCUUCGGAUAGUGGCAGGGGUGGGGGUUGCUAAGGAAGGGGUGGGAUGGGAGUGGGUAAAGAGUU | -0.435 |
| GCUUAUGUAGACAUGAGGAAGAUUGGCAGUAGCCGGGGAAUGGUUUCUGCAUACCCUCGACAGCUAGAGUCAUUAAUCCGCUUAGCAGAA | 1.04 |
| GCAGGAAGUAAAAACAAAUGGAAAUGCUUCCGAUAGUGGCAGGGGUGGGGGUUGCUAAGGAAAGGGUGGGAUGGGAGUGGGUAAAGAGUU | 0.196 |
| AAGUCCUGUGCUACACAUCGUAUGUACCGAAUCGGGAAAAGGGAAAAGGAAAAGGGAAAGUAUUAUGUUACGCCGUUCGGAUCUGCACUU | -0.133 |

Mixed results
Starting sequence: PafA, mature enzyme, eGFP fusion (Elizabethkingia meningoseptica, UniProt Q9KJX5); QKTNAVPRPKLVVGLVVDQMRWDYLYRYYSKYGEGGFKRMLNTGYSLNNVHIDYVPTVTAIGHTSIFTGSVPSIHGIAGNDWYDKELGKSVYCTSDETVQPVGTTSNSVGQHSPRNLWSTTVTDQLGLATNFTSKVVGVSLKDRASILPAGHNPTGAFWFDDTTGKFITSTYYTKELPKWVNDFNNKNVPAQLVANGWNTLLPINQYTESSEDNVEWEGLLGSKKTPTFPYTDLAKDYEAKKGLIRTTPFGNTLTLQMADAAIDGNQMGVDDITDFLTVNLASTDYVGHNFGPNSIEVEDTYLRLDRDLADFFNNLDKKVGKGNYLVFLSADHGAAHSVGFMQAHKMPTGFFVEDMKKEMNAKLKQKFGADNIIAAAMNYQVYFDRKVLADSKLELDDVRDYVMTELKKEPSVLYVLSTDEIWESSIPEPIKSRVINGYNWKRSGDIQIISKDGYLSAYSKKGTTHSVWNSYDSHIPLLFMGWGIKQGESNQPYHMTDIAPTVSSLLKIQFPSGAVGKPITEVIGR
| Change | target | assay | system | conditions | how to read | measurement | result |
| --- | --- | --- | --- | --- | --- | --- | --- |
| V468A | vanadate, free oxyanion | microfluidic competitive inhibition | in vitro, cell-free expressed | not given, derived from inhibition constants, unchanged parent 676 nM | lower = stronger binding | oxyanion analog dissociation constant | 612 nM |

Some of these lines once more (series 2):
| Sequence | log fluorescence |
| --- | --- |
| TCAGGTATGCTCATGACACTGTGCTAG | -0.595 z-score |
| GACGGTCTCGGTTACGGGACGTGCTAG | 1.36 z-score |
| GTGTGCATCTATCTTAAATAGTGCTAG | -0.212 z-score |
